{"data": "Assay results from different studies", "note": "Every numbered part comes from another study and shows a few of its results, in no order."}
{"data": "Set 1", "target": "Centromere-binding protein 1, full length, N-terminal tag (CBF1, Saccharomyces cerevisiae, UniProt P17106, residues 1-351)", "method": "protein-binding microarray", "form": "double-stranded DNA, one strand shown", "sample": "in vitro", "concentration": "0.8 µM", "notes": "whole 60-bp probe, no competitor", "direction": "higher = stronger binding", "chain of UniProt P17106 (whole entry, looked up)": "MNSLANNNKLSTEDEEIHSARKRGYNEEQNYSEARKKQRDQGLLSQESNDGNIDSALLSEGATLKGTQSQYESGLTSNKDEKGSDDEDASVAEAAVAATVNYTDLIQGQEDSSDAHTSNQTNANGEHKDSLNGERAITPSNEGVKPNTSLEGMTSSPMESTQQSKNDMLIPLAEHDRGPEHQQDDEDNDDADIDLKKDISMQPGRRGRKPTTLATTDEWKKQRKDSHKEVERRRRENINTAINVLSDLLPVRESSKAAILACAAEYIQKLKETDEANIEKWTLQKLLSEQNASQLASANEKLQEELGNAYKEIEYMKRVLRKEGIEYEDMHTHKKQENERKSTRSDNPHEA"}
{"Oligonucleotide": "CTAAAAAAGTAAAGTAACGTGAGAATGTCTGATTTCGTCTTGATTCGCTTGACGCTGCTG", "fluorescence intensity": "653 a.u."}
{"Oligonucleotide": "GAAGCAAAAAAATCAGGTGTGCAGCTATAGATCTAGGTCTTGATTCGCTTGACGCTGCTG", "fluorescence intensity": "859 a.u."}
{"Oligonucleotide": "GAAGATATCCTCTGTCATGCCTCCACTGCCAGGTAGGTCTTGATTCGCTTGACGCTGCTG", "fluorescence intensity": "530 a.u."}
{"Oligonucleotide": "GAACACATGATATATCATCACCCGGAGGCCGGTTAGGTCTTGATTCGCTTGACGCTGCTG", "fluorescence intensity": "815 a.u."}
{"Oligonucleotide": "CTAAATGCATGCAGAAACATCACGAACAGAGTATTCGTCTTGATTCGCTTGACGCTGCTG", "fluorescence intensity": "548 a.u."}
{"Oligonucleotide": "CTATAGGTATACAGTCACGACTATAATATCATATTCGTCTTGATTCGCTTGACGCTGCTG", "fluorescence intensity": "749 a.u."}
{"Oligonucleotide": "GAATCCTATCTTTATCTCACCTGTTTGAGGGAATAGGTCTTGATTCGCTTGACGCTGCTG", "fluorescence intensity": "550 a.u."}
{"Oligonucleotide": "CCTAACTACTATAACATCGTGAAATAGCTTCGTACAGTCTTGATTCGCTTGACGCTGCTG", "fluorescence intensity": "549 a.u."}
{"Oligonucleotide": "GAAGGAGCCCAGGCCTCCGTGACTCATAAAGGGTAGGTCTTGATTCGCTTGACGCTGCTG", "fluorescence intensity": "596 a.u."}
{"Oligonucleotide": "GAACTGACAGCCAACAACGTGCCACTAGCAGGATAGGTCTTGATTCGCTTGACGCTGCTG", "fluorescence intensity": "654 a.u."}
{"data": "Set 2", "target": "RING finger protein unkempt homolog, zinc fingers 1-6, GST-SBP tag (UNK, Homo sapiens, UniProt Q9C0B0, residues 30-357)", "method": "RNA Bind-n-Seq", "form": "RNA", "sample": "in vitro", "concentration": "not given", "notes": "RNA with constant flanks, human and mouse sites, ends assumed", "baseline": "input RNA pool", "direction": "higher = stronger binding", "Residues (chain)": "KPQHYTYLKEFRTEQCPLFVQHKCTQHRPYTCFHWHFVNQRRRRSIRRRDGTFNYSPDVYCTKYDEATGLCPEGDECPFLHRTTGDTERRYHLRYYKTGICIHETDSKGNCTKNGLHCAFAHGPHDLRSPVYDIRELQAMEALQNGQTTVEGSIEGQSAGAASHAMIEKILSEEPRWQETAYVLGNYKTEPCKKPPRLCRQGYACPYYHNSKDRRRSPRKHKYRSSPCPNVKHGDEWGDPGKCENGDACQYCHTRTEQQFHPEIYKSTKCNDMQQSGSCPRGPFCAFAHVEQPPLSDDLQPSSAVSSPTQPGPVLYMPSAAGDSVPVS"}
{"Oligonucleotide": "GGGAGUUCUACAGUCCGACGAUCGAGACGACAAAAAGCUGUUUUUCCUUUUGUGACUCCAGAGCUGGAAAGCCUUCCCAGCUCCAUAGUGUCUGUACCUGUCUUGUGCUUUGGGGUGUCCUUCAUGUGGCCAUUCUGCCUGCACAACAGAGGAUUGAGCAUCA", "bound/input enrichment [ratio]": 0.122}
{"Oligonucleotide": "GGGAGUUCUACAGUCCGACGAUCGCUGAAGCUAAACCCUCUGUCCACAUUGUCAUGAACUUGCCAGCUAAGGCCAUAGAGUUUCUCAGUGUUUUCAGAUCACUUUUGGAUGGGCAGCCUUGCAGCACGGAGCUCCUCCCCACACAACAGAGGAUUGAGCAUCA", "bound/input enrichment [ratio]": 0.196}
{"Oligonucleotide": "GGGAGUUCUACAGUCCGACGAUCUCACCGAACUGCAGCACCCAGGCGUCGCUUUCUGCGGAGCUCUGCUUGCCAGUCAGCGAGUAGCACUCCUUGGAGAGCAAGUUGAACCCUUCGGCCUUGACCUCCGCCACCCGAUUGGGGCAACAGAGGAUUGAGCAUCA", "bound/input enrichment [ratio]": 0.0591}
{"Oligonucleotide": "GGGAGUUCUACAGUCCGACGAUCAAAACGUUGAUUGCCAAGGCCACAGCCAAAGAAGCAGGCUGUCGAUUUAUUAACCUUCAGCCUUCGACACUGACCGAUAAGUGGUAUGGAGAAUCUCAGAAAUUGGCUGCUGCUGUCUUCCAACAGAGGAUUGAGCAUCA", "bound/input enrichment [ratio]": 0.104}
{"Oligonucleotide": "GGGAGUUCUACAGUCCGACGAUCGCGGUCAUUUUCGGGCCUGAAGGGACCCCGUUUGAGGAUGGAACAUUUAAACUUACAAUAGAAUUCACUGAAGAAUAUCCAAAUAAACCACCUACAGUUAGAUUUGUCUCUAAGAUGUUCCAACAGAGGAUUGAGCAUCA", "bound/input enrichment [ratio]": 1.85}
{"Oligonucleotide": "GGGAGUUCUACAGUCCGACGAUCUUUAUAGAAAUCACUGAUGACCAGUUUGACUUUCAUACAUACUGUAUGAGGAAGAUUACCCUUAGAUCAUAUGUGGACUUAUUAAAACUAGAAGAUGUACUUCGACAGCAUCCAUUUUACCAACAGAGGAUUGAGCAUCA", "bound/input enrichment [ratio]": 1.63}
{"Oligonucleotide": "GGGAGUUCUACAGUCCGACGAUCUACGGCAAAGGCAAGAGUAACAGCAGCGCCGUCCCGUCCGACAGCCAGGCCCGGGAGAAGUUAGCACUCUACGUGUAUGAAUAUCUGCUCCAUGUAGGAGCUCAGAAAUCGGCUCAGACACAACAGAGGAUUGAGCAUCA", "bound/input enrichment [ratio]": 0.0856}
{"Oligonucleotide": "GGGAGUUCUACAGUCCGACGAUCAAGGAUUUGGAAUCUAUUGAUACUGAAUUUUACAACUCUCUAAUCUGGAUAAGAGAUAACAAUAUUGAAGAAUGUGGCUUAGAAAUGUACUUUUCUGUAGACAUGGAGAUUCUGGGAAAACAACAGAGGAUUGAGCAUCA", "bound/input enrichment [ratio]": 0.249}
{"Oligonucleotide": "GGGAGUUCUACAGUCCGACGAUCUUAGAUUCUGGGAAAUUCCGAGCCUUAGGAUGCAUCUUGUCUGAGUUGAAACAGAAGGGUGAUAGAGUUGUAUUAUUCAGCCAGUUUACCAUGAUGCUGGAUAUACUAGAGGUUCUCUUACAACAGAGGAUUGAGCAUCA", "bound/input enrichment [ratio]": 0.731}
{"Oligonucleotide": "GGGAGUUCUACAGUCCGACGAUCAUGCUGAUCAAUGGCUAUGCGCUCAAUUGUGUGGUUGGAUCUCAGGGCAUGCCCAAGAGAAUAGUUAAUGCAAAAAUUGCUUGUCUUGACUUCAGCCUGCAGAAAACAAAAAUGAAGCUUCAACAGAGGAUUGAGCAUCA", "bound/input enrichment [ratio]": 0.103}
{"data": "Set 3", "target": "RNA binding protein fox-1 homolog 2, RRM domain, GST-SBP tag (RBFOX2, Homo sapiens, UniProt O43251-10, residues 100-194)", "method": "RNA Bind-n-Seq", "form": "RNA", "sample": "in vitro", "concentration": "365 nM", "notes": "natural RNA segment, single round, ends assumed", "baseline": "no-protein control", "direction": "higher = stronger binding", "Construct (chain)": "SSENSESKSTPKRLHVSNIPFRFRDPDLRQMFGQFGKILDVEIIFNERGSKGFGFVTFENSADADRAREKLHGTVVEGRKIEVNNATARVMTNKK"}
{"Oligonucleotide": "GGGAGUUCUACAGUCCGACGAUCCCUCGUUUUCUCUGCGUGGUUCAGCUACUUUCCAUUUGGUAUUAUGCACUCAAACUUAACAUUUAUCUAUUAAAAUUGCCAUUUCAUUAAGCAAUUUUCACGCACAGUAGUGGAAUUCUCGGGUGCCAA", "RBNS enrichment (R)": 0.531}
{"Oligonucleotide": "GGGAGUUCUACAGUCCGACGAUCUCACACGGCUGAGAGUCCCCUUUCCAGGCAGGGCCAGCAUGUGUAGAAUAUCUUUCAGAAUAUGGUUUCACCAUGAAACAGGGGUGGUAGAUUUAUUCCCUUGUGUCAGGUGGAAUUCUCGGGUGCCAA", "RBNS enrichment (R)": 4.58}
{"Oligonucleotide": "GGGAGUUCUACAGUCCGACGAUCUCUUCAGCCCCUUGCCUAGAGAGAUGGCCUGAUGGCCUUUUGUGCUUCCCCCCAGAGGGCAGUGGGGAUGCCUCCAGCCCCAGCCCCAAAUGGUGCUGCUACUGGAUCAGUGGAAUUCUCGGGUGCCAA", "RBNS enrichment (R)": 0.335}
{"Oligonucleotide": "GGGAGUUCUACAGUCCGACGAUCUGUCUGCAUAUUGCAUAGCCUUGUCCUCCUGUGUGCCUGAGCUCCUCCCUUUUCAAUAAGAUUAUUAGUCGUGCAUGUCUGUGAGCUGCCUUUCAUCACCAUUUUUCCUGUGGAAUUCUCGGGUGCCAA", "RBNS enrichment (R)": 8.83}
{"Oligonucleotide": "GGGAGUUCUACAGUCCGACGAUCUUCUGAGUUCAAAACCCAUAGCCCUGAGUUUGAAACUCAAAGUUCCAAAUUCCAGGAAGGUGCAGAGAUGCCUCUGAGCCCCGAGGAAAAGAAUCCCUUGAGCAUCUCCCUGGAAUUCUCGGGUGCCAA", "RBNS enrichment (R)": 0.386}
{"Oligonucleotide": "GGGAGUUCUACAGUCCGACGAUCUCCCCAGUCGAUUGGGACACAGUCUCUCUUUGUCUAGGUAACACAUGGUGACACAUAGCAUUGAACUCUCCACUCUGAGGGUGGGUUUCCCUCCCCCUGCCUCUUCUGGGUGGAAUUCUCGGGUGCCAA", "RBNS enrichment (R)": 0.563}
{"Oligonucleotide": "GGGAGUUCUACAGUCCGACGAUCCUGGGCCACCUUGGGAAGCCAUCCUUGAGGCCCUUGCUCCAAUAGGAGAGGUAUUGUGGAUUCACACGGCAGUCACUUGUUGCCCUCAUGCCCUGUGGUGUUUGGCACGAUGGAAUUCUCGGGUGCCAA", "RBNS enrichment (R)": 0.168}
{"data": "Mixed results"}
{"Molecule": "PhoQ, residues 284 288 289 292 302 303 TSTLRA", "target": "PhoP, residues 12 14 15 18 19 NQGLL (Escherichia coli, UniProt P23836)", "assay": "Sort-seq, item: YFP reporter", "test system": "E. coli", "conditions": "PhoQ-PhoP variant library, added: 10 µM Mg2+", "how to read": "baseline: high Mg2+ state, higher = stronger signaling", "measurement": "fold induction", "value": 3.74}
{"note": "Repeated from above (set 1):"}
{"Oligonucleotide": "CTATAGGTATACAGTCACGACTATAATATCATATTCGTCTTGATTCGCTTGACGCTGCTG", "fluorescence intensity": "749 a.u."}
{"Oligonucleotide": "GAATCCTATCTTTATCTCACCTGTTTGAGGGAATAGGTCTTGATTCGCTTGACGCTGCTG", "fluorescence intensity": "550 a.u."}
